# Published values pooled from the literature.
# Numbered parts are unrelated; each lists some results of a single study.

# Set 1 — method: universal PBM; form: double-stranded DNA, one strand shown; medium: in vitro; concentration: not given; direction: higher = stronger binding
# Target: Sal-like protein 4, full length isoform B (SALL4, Homo sapiens, UniProt Q9UJQ4-2, residues 1-616)
# Setting: 8-mer, flanks averaged, mean of replicates
# Residues (chain): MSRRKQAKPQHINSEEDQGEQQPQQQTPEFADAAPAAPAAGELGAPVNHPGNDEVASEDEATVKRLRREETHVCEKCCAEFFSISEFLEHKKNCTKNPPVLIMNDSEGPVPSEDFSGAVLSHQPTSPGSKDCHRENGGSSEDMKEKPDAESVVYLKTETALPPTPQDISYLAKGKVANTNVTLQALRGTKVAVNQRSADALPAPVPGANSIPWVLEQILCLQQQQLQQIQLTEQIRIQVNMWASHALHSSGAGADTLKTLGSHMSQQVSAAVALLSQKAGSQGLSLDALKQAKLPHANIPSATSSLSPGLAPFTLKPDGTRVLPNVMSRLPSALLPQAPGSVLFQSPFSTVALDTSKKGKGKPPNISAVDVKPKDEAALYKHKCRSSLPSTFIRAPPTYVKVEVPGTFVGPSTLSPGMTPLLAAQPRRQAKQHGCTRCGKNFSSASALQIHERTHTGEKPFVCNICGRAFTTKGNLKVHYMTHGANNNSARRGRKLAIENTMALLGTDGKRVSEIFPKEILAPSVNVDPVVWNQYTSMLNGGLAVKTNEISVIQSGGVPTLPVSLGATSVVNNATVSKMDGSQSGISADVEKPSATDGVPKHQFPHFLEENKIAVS
Oligonucleotide,E-score
ATGATCGA,0.146
GTCTTCGA,-0.0536
ACAGGGAC,-0.187
CCGCTCCG,-0.259
CCATAAAC,0.123
AACCGTGG,-0.203
TAGTGGAA,-0.0794
ACGACCCT,-0.166
ATTCAACG,0.116
ATGTCTCC,0.0278
CAAGTCTG,-0.0506
CGGTCACA,-0.204
ACTCTGTC,-0.0833
GAGAAGCC,-0.235
CAAGACGC,-0.133
TCGCATAA,0.257
ATATTTCC,0.396
AGCAGACA,-0.0542
GAACAAGC,0.0461
CGGACCAG,-0.287
ATTTAGCA,0.206
CAAACACG,0.0101
GTAAGTAA,0.175
CTCCTAGC,-0.205
CTTACTTA,0.126

# Set 2 — method: RNA Bind-n-Seq; form: RNA; medium: in vitro; concentration: 365 nM; baseline: no-protein control; direction: higher = stronger binding
# Target: RNA binding protein fox-1 homolog 2, RRM domain, GST-SBP tag (RBFOX2, Homo sapiens, UniProt O43251-10, residues 100-194)
# Setting: natural RNA segment, single round, ends assumed
# Constant ends, left off below: GGGAGUUCUACAGUCCGACGAUC … UGGAAUUCUCGGGUGCCAA
# Construct (chain): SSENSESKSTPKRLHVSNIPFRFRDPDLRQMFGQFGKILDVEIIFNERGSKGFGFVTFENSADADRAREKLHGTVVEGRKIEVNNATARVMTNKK
Oligonucleotide,RBNS enrichment (R)
CAAGGCCCUGUGGGAGGAGACUGGCCUGCAUCUCUCUAAGACUUAGUCUGACGCCACGCGCAUCUCUUGUUCUGUGUUCAAUCAGUAGUCCAGGGGAGAAGCUUCUGCUA,0.347
UGAUGGUGUUUAUGAACAUGCCGUAGUGCCUUUAUGGCCAGUUUGAGUCCUGCCUACUUUGACUUUUACGUUCCCAUUCCUGUGUUACCACCUUCCUCCCGAUUUGUUCA,0.706
AAUGAAAAAGAAAAGAUAGCCUUGGACUUUUUUUUCAUGGGAGGUUUGGAGGUCAAGCAUGUAGAAGGAAAAGGCUGUAGUCAUGAAUAUAGAACUGUCUGCUCUCCACC,3.21
AAAUUUUGUAUCAUCAGGACUGACACCCAAUUUGACACUUUUUGUAUCUAGAAGACCCUCCAAAAAAGGAACCACAUAAGCACACAAGAAAAGAGUGCUAUGAUGUUCUU,0.291
UGUUUGUUUCUGUUUUUCUGGAUUUAAAAAAAAAGAAAACCUUGCUUUUAGUGUUUGUACUGCUGCUGGUCAGAAUGUUGUUAACUGCUCAGUUCUAGGAAGCAGGAGAG,0.69
ACAUGCAUUUGUGCAUUUCUACUACAAUGGCAUCUUUAUGUCUCUGUAACAUUGGCCUUUUCAUGGCUCCACACUGGGUGGAACCAUAUUCUCUUAGAUCACAUUUAGUA,0.435
CCCCCCAGAGCUAGAGAGAUGGGGCCCCUGCGUGGCCCGAGGGGCAGAGCUGGGCGUCACUUCGCAAGCGUCCUGCCCUGCCGGGGCGCGGGGGUGGGCUCUGGGGAAGC,1.23
UCUGAAUUAAAAUUUGAAACUCUGACCACACUCAGUACCCUACUGUCCCUAUAACUGGGGUUAUCUGACCAUCCAUCUCCCUUCUUUGUUCUGCUUUCUGUUCGGGGUGC,0.765
CAAGAUGCUACUUGUAUCUUUGUCCAUAAAUUGUAAAUAAUUUUAUGCACAUUAUACCAAAUCUUCCUAAAAAGUAAUUUUUCAAAAAAGUAAAAAAGAGAAACUGGAAA,0.429
CCCGAGAACGAGGAAGAUGGAUGUCCCAGCUCCCAAAGGGAGGAUUCUCCCUUCCUCCUCCUUCUUUUCUAUUGGGGCCCUCAACAGAUUGGAUGGAGUGGAUGUCUUCA,0.355
ACUUGAAAACAUAGAUAGUUUAAUCUUGACUUGAAAAACACAAAAAUAAAUUCAGAAAAUGCUUUUAGCACAGUGUCUCUUUUUUAAAGUUUUGCCAAGUGUGGUUUUUA,0.409
UGCUAGAAUAAAGCAGAAGGGCUUUCCUAACAUGCUUUAGAGCUUUUAUUGCUUCUUACUGAUACUGACUUAGAAAGCUUUCUGGGUUUUGUAUUUGUUUUAAGAAACAU,0.248

# Set 3 — method: RNA Bind-n-Seq; form: RNA; medium: in vitro; concentration: not given; baseline: input RNA pool; direction: higher = stronger binding
# Target: RING finger protein unkempt homolog, zinc fingers 1-6, GST-SBP tag (UNK, Homo sapiens, UniProt Q9C0B0, residues 30-357)
# Setting: RNA with constant flanks, human and mouse sites, ends assumed
# Constant ends, left off below: GGGAGUUCUACAGUCCGACGAUC … CAACAGAGGAUUGAGCAUCA
# Construct (chain): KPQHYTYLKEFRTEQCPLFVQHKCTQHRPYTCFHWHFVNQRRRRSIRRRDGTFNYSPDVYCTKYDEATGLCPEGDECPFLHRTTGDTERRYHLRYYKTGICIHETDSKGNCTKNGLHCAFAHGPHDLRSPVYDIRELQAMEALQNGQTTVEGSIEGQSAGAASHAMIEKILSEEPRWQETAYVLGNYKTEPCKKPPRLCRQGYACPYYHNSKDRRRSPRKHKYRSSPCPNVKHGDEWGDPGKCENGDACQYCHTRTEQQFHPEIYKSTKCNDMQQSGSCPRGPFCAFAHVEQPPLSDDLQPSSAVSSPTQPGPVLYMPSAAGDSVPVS
Oligonucleotide,bound/input enrichment [ratio]
GUGCUGAGUUACACCAGAAUGUAAAUGUGAAGAACAUAAUCAUUGCUUUAAUUGAUAGAUUAGCUUUAUUUGCUCACCGUGAAGAUGGACCUGGAAUCCCAGCGGAUAUUAAACUUUUUG,2.51
CCGGGACACUGCCUGAUGUUCGAUCACCGGCCACGGUCCUGGCGAGAGCUGCCCCUGCGGCUAGCUGACUUUGGUGUGCUGCAUAGGAAUGAGCUCUCGGGGGCUCUCACCGGGCUCACA,0.178
CUGAAAGUUUUGGCCACAGCUUUUGAUACAACAUUGGGAGGCAGAAAAUUUGAUGAGGUGUUGGUAAAUCACUUCUGUGAAGAAUUUGGAAAGAAAUACAAGCUAGACAUAAAAUCUAAA,0.538
GUUAUUCUUGUAUGUAAUCCUGUGGCUUAACGACUUUUCCCUCCUCACCCUGCACUUCUCUAGCUCUCUGUUCCCUCUCCAUGGCUCUGACUCUUCUUAUUCUUGUGCUAAGACUUGUAG,1.04
AAUGCUGUCCUCAAUGCUGGCGCUGGAGAGGAUAACCUGGAAUUCCGCCUGCAUCUCCGGUAUGAGUUCCUGAUGCUGGGGAUCCAGCCAGUGAUUGAUAAACUCCGGCAACACGAGAAU,0.0694
CAGCCUAUGGCCCAGGCCGCCUUGGGUAUUUCUGCUCAAGGUAACCACAUCCCUCUUUAAAAAUUCCGCCGAAAAAGAGAAGACGCUUUACCCGACUCUUUGGGCCGUUAUCUCACGUUG,0.294
CCUGCAGCCGGGGGACGCUUCUGGGUUGGAGGACCUUCUGGAUGUAGCGUCGGUGGAACCUUUAGAUACUCUCCUCUGGAAAAGCCACCAUGAAUUCGGUAGCUGGGAAUAAAGAGAGGC,0.581
UGUUAUCUGUUGCAGAAGGGAUGUAUUUGGCAGAAUCUCAGGCUGCAUGUCUGGUAGCUCAUUAGAGCCAGGAGAGAUUUUAGUUUAAUUAUAGCCUUUCAUUGUACUAACGAAGGAUUU,1.81
AACAAACUUAUAGUGACGCGUUGGAAGGCUAACCGAAGCCAUCCUUACCCCUAUUUAAUGUAGCUUGGCUUGCUUUCCCUUUUAUCUGAUGUUACCAUUGCGAUCUAGCUUUCUUUUCAU,0.562
AAAUUCAUAUACAGUCAAAAACCUUGAACAACUUCUUGAUUGUUUGGGUUUUGUUGUUUUGUUUUAAAUUUUUAAUUUUAUGUAGCCCUGGCUGUCCUGGAACUCACUGUAGACCAGGCU,1.26
GAAAGGGGUUCAUCUCAGAGACCAUAUCGAGAAUCUUCUGACAAUGAAGGUAGGCGUACAACUAGGAGAUUGCUGUCACGGAUAGCUUCUAGCAUGUCAUCUACUUUUUUCUCACGAAGA,0.113

# Set 4 — method: competition protein-binding microarray; form: double-stranded DNA, one strand shown; medium: in vitro; concentration: 2 µM; with: Cbf1 competitor, 0.05 µM; direction: higher = stronger binding; constant ends, left off below: … GTCTTGATTCGCTTGACGCTGCTG
# Target: Phosphate system positive regulatory protein PHO4, full length, GST-tagged (PHO4, Saccharomyces cerevisiae, UniProt P07270, residues 1-312)
# Setting: whole 60-bp probe, lowest competitor level
# Target sequence (chain): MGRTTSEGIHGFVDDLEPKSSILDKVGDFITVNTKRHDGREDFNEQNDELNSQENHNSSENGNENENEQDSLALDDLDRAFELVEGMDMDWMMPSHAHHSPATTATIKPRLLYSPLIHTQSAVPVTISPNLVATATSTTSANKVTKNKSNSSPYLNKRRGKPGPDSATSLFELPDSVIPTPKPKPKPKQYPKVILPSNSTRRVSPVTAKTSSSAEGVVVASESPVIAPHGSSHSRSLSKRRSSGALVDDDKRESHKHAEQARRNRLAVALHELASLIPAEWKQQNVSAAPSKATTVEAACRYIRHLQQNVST
Oligonucleotide,fluorescence intensity [a.u.]
GAAATATGTTGGGAGCACATGTTCGACCCATTACAT,12300
AAATTACTAAGTTGTCACGATACTTACCCCGTATGA,5330
AAAGCGGTAATTTGAAGAGTGGGTGCAGATATCTAT,4400
TGTCTTGTAATACCTTTTTTTTTAACTTTTTCAAGA,2950
CGTCCTAGTGATTGTCACTCTACTTCCATGAGGAAG,4260
CGCGCCACTGCTACTCATGTGCTGCAAACTAACAGT,8000
GTCTTGTCTCATTTTCACGTGTCGTTCCCCACTTCA,12600
GTCTTGTCTCATTGTCACGGCACTTTCCCCACTTCA,4540
ACTATAAAGAACTGTCACATGACGATACATCCAAGC,7620
TGAAAAATTTTCGGTAGCGTGCTTTAGCCGGTATAA,7170
AAAGCGGTAATTTGAGGGGTGGGTGCAGATATCTAT,4710
AAATTACTAAGTTGATCAGTGGGTGACGCCGTATGA,3550
CTTCATTCAAAGGTCCACGTTCAATTAAGTAACAAG,11800
ATATTGATGGATTGTCATGTGATAGATAATTTCGTT,6530
CACTGTAGATGAACACACACTAAACGACAATAAGAC,6790
AGGAGAAAATCCGGCCACGATTTAACGGTTGTTGCT,6820
CTGACCTGACATTTGTTAAAAAGGACGTAAGATCGC,3190
GTCTTGTCTCATTGCTTGGTGGGTGTCCCCACTTCA,4790
GTATAAATGTAGTTAAAAGTTTTTGTTTTGATAATT,4180
CCGCGTTGAGCAGCTCTCCTGCGGGCTTTCACAGAG,4130
CTTCCTTTGTCCTGGTAGGTGTGAGCTCTTGAGAGT,5550
CTAACGAAGGTTTGCGCTGTGGGTGACAAGCCAAGT,3420
AAAGCGGTAATTTGGATAGTGGGTGCAGATATCTAT,4450
ACACTTTGGTTCTTCGACATGATAAAGTAAAACAAC,4420
TGCCTATGGTAGCTGCATGATCATACAATGCACTCC,5280

# A few entries again (set 1):
Oligonucleotide,E-score
CTTACTTA,0.126
CCATAAAC,0.123
CTCCTAGC,-0.205
CAAGACGC,-0.133
GAACAAGC,0.0461
ACGACCCT,-0.166
ACAGGGAC,-0.187
ATTCAACG,0.116
ACTCTGTC,-0.0833
